Published values collected from several papers.
Compare with care: the assays were run in different laboratories. Numbers after ± are the reported error.
Cell line: SGC-7901

Structure (SMILES)	assay	setting	IC50 [µM]
O=C(/C=C/c1ccc2c(c1)C(=O)N(CCCc1ccccc1)CC2)NO	cell growth, SRB	72 h	2.38 ± 0.61
CSc1nc(N)c2c(F)c(C#N)c(F)c(Cl)c2n1	cell growth or viability, MTT	96 h	6.65
[NH2][Pt]1([NH2])([Cl])([O]C(=O)C(Cl)Cl)[O]C(=O)C2(CC(=O)C2)C(=O)[O]1	cell growth or viability, MTT		16.8
COc1ccc(C(=O)c2cc(C(=O)c3cc(Cl)ccc3O)c[n+]3c2NCCCC3)cc1	cell growth or viability, MTT	96 h	10.5
CCCCSc1nc(N)c2c(F)c(C#N)c(F)c(F)c2n1	cell growth or viability, MTT	96 h	11.6
CCC(C)C1OC(=O)C(C)(C)C(=O)C(Cc2ccccc2)OC(=O)C(C(C)C)OC(=O)C(NC(=O)c2cccc(O)c2)C(C)OC1=O (stereo not shown)	cell growth or viability, CCK-8	72 h	16.7
O=C1/C(=C/c2ccccc2F)CNC/C1=C\c1ccccc1F	cell growth or viability, MTT	72 h	6.1
N#Cc1c(F)c(F)c2nc(SCc3ccccc3)nc(N)c2c1F	cell growth or viability, MTT	96 h	6.26
CC(C)C1OC(=O)C(NC(=O)c2cccc(O)c2)C(C)OC(=O)C(C(C)C)OC(=O)C(C)(C)C(=O)C(Cc2ccccc2)OC1=O (stereo not shown)	cell growth or viability, CCK-8	72 h	> 20
[NH2][Pt]1([NH2])([Cl])([O]C(=O)C(F)(F)F)[O]C(=O)C2(CC(=O)C2)C(=O)[O]1	cell growth or viability, MTT		20.2
